{"data": "Published values gathered from unrelated publications", "note": "Every numbered part comes from another study and shows a few of its results, in no order.", "sequence of UniProt P27448 (whole entry, looked up)": "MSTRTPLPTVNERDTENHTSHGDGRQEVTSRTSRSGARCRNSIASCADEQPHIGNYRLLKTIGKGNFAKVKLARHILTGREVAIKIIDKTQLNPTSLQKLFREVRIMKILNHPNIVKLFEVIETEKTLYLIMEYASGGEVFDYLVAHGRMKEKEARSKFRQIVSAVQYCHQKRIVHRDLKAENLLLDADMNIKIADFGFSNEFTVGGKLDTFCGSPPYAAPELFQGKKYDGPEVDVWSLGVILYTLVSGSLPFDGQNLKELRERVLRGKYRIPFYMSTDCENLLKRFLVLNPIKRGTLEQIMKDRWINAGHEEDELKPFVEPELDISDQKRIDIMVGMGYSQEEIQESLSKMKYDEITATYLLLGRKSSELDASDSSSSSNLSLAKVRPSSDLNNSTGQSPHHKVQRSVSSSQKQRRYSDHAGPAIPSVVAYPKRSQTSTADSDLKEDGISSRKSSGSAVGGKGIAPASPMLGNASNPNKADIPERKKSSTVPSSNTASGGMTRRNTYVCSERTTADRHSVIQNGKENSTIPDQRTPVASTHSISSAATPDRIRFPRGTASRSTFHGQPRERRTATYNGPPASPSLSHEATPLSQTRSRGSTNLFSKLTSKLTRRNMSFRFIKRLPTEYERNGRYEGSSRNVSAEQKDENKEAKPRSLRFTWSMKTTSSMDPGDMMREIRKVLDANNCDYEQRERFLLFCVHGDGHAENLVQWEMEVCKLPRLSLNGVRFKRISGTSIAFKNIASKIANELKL", "sequence of UniProt Q9Y6E0 (whole entry, looked up)": "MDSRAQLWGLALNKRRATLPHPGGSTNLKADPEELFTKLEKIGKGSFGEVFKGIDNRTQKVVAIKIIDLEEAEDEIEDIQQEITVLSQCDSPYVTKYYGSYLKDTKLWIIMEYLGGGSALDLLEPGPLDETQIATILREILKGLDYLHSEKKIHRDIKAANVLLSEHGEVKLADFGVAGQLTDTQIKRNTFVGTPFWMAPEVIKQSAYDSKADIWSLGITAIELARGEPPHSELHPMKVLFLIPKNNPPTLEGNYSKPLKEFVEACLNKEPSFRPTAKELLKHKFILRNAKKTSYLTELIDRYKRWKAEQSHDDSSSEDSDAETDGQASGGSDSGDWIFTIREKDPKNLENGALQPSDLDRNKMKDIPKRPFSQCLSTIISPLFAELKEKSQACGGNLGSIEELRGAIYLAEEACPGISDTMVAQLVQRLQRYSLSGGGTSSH", "sequence of UniProt Q8NG66 (whole entry, looked up)": "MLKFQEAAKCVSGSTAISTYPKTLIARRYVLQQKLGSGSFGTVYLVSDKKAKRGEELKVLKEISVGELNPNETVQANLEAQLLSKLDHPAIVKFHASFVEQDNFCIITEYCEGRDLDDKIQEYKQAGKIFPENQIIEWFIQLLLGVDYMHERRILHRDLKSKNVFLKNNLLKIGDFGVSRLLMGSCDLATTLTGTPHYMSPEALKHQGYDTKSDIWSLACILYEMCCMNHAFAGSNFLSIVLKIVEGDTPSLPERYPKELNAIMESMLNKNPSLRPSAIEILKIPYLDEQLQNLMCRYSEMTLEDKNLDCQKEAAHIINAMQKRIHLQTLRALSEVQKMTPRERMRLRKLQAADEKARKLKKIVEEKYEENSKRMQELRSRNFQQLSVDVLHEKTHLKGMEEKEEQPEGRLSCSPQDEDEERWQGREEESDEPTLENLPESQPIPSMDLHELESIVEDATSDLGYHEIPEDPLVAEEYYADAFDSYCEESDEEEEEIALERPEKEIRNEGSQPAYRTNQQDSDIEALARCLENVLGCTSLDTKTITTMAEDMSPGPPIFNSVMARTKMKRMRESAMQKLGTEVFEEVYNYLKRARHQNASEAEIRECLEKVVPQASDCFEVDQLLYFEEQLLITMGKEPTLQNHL", "sequence of UniProt P53355 (whole entry, looked up)": "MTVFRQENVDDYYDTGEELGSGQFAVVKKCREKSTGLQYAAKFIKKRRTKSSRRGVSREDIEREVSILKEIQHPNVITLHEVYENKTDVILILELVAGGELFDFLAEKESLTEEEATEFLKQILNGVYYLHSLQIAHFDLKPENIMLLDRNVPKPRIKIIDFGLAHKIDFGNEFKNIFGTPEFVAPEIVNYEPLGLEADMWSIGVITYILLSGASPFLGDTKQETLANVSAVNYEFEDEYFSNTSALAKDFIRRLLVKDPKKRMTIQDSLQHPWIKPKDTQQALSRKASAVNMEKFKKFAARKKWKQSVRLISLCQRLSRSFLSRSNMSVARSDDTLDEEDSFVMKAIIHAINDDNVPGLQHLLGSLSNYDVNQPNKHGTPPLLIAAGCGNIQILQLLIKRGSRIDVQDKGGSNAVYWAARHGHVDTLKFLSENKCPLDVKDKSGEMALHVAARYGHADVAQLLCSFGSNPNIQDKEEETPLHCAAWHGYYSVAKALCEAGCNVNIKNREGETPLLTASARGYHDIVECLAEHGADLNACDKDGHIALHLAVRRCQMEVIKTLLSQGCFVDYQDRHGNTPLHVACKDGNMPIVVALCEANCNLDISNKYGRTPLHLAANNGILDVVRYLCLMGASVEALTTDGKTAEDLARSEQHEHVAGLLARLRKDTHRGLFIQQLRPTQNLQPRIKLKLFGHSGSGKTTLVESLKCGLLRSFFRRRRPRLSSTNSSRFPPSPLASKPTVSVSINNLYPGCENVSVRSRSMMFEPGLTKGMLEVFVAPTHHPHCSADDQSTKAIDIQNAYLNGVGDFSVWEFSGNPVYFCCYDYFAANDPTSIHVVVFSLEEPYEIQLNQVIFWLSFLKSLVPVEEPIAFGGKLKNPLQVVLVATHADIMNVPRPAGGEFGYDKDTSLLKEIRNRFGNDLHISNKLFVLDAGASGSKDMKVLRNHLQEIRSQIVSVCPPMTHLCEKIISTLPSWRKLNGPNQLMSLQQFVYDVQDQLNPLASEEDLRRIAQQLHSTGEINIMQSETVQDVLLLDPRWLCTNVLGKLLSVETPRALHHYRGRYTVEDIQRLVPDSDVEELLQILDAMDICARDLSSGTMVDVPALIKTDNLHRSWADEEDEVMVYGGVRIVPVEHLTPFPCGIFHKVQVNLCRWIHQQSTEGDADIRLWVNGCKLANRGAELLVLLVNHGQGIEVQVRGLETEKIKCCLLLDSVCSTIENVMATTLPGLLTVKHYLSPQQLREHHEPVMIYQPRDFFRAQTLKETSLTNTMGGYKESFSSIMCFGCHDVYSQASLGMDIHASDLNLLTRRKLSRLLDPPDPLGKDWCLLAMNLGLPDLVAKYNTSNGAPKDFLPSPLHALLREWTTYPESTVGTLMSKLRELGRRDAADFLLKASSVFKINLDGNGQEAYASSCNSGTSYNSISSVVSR", "sequence of UniProt P15056 (whole entry, looked up)": "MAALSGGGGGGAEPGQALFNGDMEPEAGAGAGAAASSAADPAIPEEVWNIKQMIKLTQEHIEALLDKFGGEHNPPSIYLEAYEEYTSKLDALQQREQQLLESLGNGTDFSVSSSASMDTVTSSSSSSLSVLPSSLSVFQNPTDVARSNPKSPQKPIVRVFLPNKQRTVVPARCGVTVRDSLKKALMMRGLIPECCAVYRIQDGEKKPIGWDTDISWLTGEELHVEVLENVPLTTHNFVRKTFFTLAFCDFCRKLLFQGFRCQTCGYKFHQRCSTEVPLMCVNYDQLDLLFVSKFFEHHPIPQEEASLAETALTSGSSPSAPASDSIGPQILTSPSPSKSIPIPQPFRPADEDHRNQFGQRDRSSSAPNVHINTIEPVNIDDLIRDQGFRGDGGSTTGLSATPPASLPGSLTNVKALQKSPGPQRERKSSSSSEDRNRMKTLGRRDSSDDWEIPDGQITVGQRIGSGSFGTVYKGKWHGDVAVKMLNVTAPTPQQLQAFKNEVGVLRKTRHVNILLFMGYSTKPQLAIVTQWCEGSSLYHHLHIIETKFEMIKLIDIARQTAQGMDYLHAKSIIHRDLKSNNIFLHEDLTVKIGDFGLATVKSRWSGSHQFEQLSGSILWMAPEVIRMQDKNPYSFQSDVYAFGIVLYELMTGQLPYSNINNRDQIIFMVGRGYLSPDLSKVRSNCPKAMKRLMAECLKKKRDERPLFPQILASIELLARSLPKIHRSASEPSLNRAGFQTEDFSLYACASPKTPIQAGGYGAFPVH", "sequence of UniProt Q00526 (whole entry, looked up)": "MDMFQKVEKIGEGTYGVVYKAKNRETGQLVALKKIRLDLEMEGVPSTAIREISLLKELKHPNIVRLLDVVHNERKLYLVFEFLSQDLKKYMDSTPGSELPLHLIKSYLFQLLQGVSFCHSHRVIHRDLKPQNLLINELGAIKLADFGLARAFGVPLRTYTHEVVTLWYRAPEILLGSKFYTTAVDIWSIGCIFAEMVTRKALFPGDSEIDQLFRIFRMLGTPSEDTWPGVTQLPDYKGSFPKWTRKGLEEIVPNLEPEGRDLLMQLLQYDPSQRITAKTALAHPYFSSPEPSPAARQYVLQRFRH", "sequence of UniProt P53667 (whole entry, looked up)": "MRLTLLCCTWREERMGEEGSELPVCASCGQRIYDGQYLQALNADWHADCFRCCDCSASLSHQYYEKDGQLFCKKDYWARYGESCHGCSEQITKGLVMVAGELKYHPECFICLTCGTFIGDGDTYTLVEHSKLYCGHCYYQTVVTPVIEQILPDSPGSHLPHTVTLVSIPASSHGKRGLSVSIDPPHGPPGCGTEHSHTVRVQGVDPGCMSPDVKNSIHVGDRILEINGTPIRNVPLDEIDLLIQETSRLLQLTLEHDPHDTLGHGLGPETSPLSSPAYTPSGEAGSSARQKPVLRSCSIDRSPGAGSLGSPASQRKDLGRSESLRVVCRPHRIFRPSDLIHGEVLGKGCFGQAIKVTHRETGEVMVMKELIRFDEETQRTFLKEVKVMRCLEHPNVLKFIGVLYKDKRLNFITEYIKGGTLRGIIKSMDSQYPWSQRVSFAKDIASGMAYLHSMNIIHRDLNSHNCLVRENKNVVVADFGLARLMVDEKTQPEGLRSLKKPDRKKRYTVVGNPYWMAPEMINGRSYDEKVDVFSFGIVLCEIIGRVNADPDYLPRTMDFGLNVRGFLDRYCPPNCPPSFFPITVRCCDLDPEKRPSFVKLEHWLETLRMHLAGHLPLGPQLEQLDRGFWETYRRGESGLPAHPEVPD"}
{"data": "Set 1", "organism": "Sarcocystis neurona", "observed": "parasite growth", "concentration": "10 µM", "time": "96 h", "setting": "first screen", "baseline": "untreated"}
{"SMILES": "CN(C)CCC[C@@]1(c2ccc(F)cc2)OCc2cc(C#N)ccc21", "log2 fold change": -0.32}
{"SMILES": "COCc1c(C(C)C)nc(C(C)C)c(/C=C/[C@@H](O)C[C@@H](O)CC(=O)O)c1-c1ccc(F)cc1", "log2 fold change": -0.5}
{"SMILES": "COc1c(N2CCNC(C)C2)c(F)cc2c(=O)c(C(=O)O)cn(C3CC3)c12 (stereo not shown)", "log2 fold change": 0.3}
{"SMILES": "Nc1ccn([C@@H]2O[C@H](CO)[C@@H](O)[C@@H]2O)c(=O)n1", "log2 fold change": 0.27}
{"SMILES": "CC(C)NCC(O)c1ccc(NS(C)(=O)=O)cc1 (stereo not shown)", "log2 fold change": 0.0568}
{"SMILES": "CC(C[N+](C)(C)C)OC(N)=O (stereo not shown)", "log2 fold change": 0.12}
{"SMILES": "Cn1c(=O)c2[nH]cnc2n(C)c1=O", "log2 fold change": 0.06}
{"SMILES": "CC(C)NCC(O)COc1ccc(COCCOC(C)C)cc1 (stereo not shown)", "log2 fold change": 0.11}
{"SMILES": "CC(C)n1c(/C=C/C(O)CC(O)CC(=O)O)c(-c2ccc(F)cc2)c2ccccc21 (stereo not shown)", "log2 fold change": 0.04}
{"SMILES": "CC(C)NCC(O)COc1ccc(CC(N)=O)cc1 (stereo not shown)", "log2 fold change": -1.28}
{"data": "Set 2", "Structure (SMILES)": "CC(=O)N[C@@H](Cc1c[nH]c2ccccc12)C(=O)N[C@@H](CCC(=O)C=[N+]=[N-])C(=O)OC(C)C", "medium": "EL4 tumour", "dose": "dose not given", "baseline": "vehicle"}
{"refers to": "3-indoxyl sulfate", "host": "mouse, EL4 tumour-bearing", "log2 fold change": 0.365}
{"refers to": "uridine", "host": "mouse, EL4 tumour-bearing", "log2 fold change": -0.272}
{"refers to": "sucrose", "host": "mouse, EL4 tumour-bearing", "log2 fold change": 1.7}
{"refers to": "methionine sulfoxide", "host": "mouse, EL4 tumour-bearing", "log2 fold change": 0.265}
{"refers to": "arginine", "host": "mouse, EL4 tumour-bearing", "log2 fold change": 0.00778}
{"refers to": "glutamate", "host": "mouse, EL4 tumour-bearing", "log2 fold change": -0.0667}
{"refers to": "indolepropionate", "host": "mouse, EL4 tumour-bearing", "log2 fold change": 1.11}
{"refers to": "1-methyladenosine", "host": "mouse, EL4 tumour-bearing", "log2 fold change": -0.395}
{"method": "metabolomics", "refers to": "5,6-dihydrouridine", "host": "mouse", "log2 fold change": -0.752}
{"refers to": "glycine", "host": "mouse, EL4 tumour-bearing", "log2 fold change": -0.0577}
{"refers to": "valine", "host": "mouse, EL4 tumour-bearing", "log2 fold change": 0.537}
{"refers to": "S-adenosylhomocysteine", "host": "Mus musculus", "log2 fold change": -1.18}
{"data": "Set 3", "SMILES": "O=C1NC(=O)C(c2c[nH]c3ccccc23)=C1c1c[nH]c2ccccc12", "observed": "enzyme activity", "action": "inhibitor", "concentration": "0.5 µM", "baseline": "control"}
{"target": "HIPK1 (Homo sapiens, UniProt Q86Z02)", "remaining activity [%]": 102}
{"target": "STK25 (Homo sapiens, UniProt O00506)", "remaining activity [%]": 78.3}
{"target": "TAOK3 (Homo sapiens, UniProt Q9H2K8)", "remaining activity [%]": 85.2}
{"target": "MARK3 (Homo sapiens, UniProt P27448)", "remaining activity [%]": 98.5}
{"target": "LIM domain kinase 1 (LIMK1, Homo sapiens, UniProt P53667)", "remaining activity [%]": 103}
{"target": "NEK11 (Homo sapiens, UniProt Q8NG66)", "remaining activity [%]": 108}
{"target": "AKT1 (Homo sapiens, UniProt P31749)", "remaining activity [%]": 87.7}
{"target": "Cyclin-dependent kinase 3, with cyclin E (CDK3, Homo sapiens, UniProt Q00526)", "remaining activity [%]": 91.5}
{"data": "Set 4", "Compound": "CC(=O)N1CCC(c2ccc(C(=O)NC(=N)N)cc2C(F)(F)F)CC1", "observed": "cell-free assay", "method": "competition with immobilised ligand", "concentration": "1 µM"}
{"target": "PLK3 (Homo sapiens, UniProt Q9H4B4)", "remaining binding": "82%"}
{"target": "EGFR (Homo sapiens, UniProt P00533, G719C)", "remaining binding": "100%"}
{"target": "MAPK3 (Homo sapiens, UniProt P27361)", "remaining binding": "100%"}
{"target": "STK24 (Homo sapiens, UniProt Q9Y6E0)", "remaining binding": "100%"}
{"target": "GRK2 (Homo sapiens, UniProt P25098)", "remaining binding": "96%"}
{"target": "FLT3 (Homo sapiens, UniProt P36888, R834Q)", "remaining binding": "93%"}
{"target": "PI4KB (Homo sapiens, UniProt Q9UBF8)", "remaining binding": "100%"}
{"target": "DAPK1 (Homo sapiens, UniProt P53355)", "remaining binding": "100%"}
{"target": "PIK3CA (Homo sapiens, UniProt P42336, H1047L)", "remaining binding": "100%"}
{"target": "PTK2B (Homo sapiens, UniProt Q14289)", "remaining binding": "100%"}
{"target": "FLT3 (Homo sapiens, UniProt P36888, N841I)", "remaining binding": "100%"}
{"target": "BRAF (Homo sapiens, UniProt P15056)", "remaining binding": "100%"}
{"target": "EPHB6 (Homo sapiens, UniProt O15197)", "remaining binding": "100%"}
{"target": "TYRO3 (Homo sapiens, UniProt Q06418)", "remaining binding": "100%"}
{"target": "PKMYT1 (Homo sapiens, UniProt Q99640)", "remaining binding": "100%"}
{"target": "MAP4K3 (Homo sapiens, UniProt Q8IVH8)", "remaining binding": "100%"}
